Experimental data collected from several papers.
Each line is one published result; not all experiments were run side by side. “And” joins repeats or separate records; there may be more than shown.

Compound | cell line | test | setting | how to read | quantity | value
CC(C)C[C@@H](N)C(=O)N[C@H](CC(C)C)C(=O)N[C@H](Cc1ccccc1)C(=O)N[C@H](Cc1ccccc1)C(=O)N[C@H](C)C(=O)N[C@H](CCC(=O)O)C(N)=O | NGF-differentiated PC-12 neurons |  | 20 µM, 24 h | reference: untreated | viability | 98.3%
COc1cccc(-c2ccccc2NC(=O)C2CCN(Cc3ccccc3F)CC2)c1 | Vero-E6 | CellTiter-Glo ATP | 72 h, retest 8-point duplicates | reference: DMSO 0%, hyamine -100%, more negative, more toxic | maximum response | -0.611%
CN(CCC=C1c2ccccc2CCc2ccccc21)N=O | TK6 |  | 10 µM, 4 h, together with: hamster liver S9 | reference: vehicle | relative survival | 31.3%
CCc1ccc(Sc2cc(C(=O)NCCCN3CCC(C)CC3)c3ccccc3n2)cc1 | Vero-E6 | CellTiter-Glo ATP | concentration not given, 72 h, retest 8-point duplicates | reference: DMSO 0%, hyamine -100%, more negative, more toxic | cytotoxicity efficacy | -31.4%
CC(C)C[C@@H](NC(=O)[C@H](N)CCCCN)C(=O)N1CCC[C@@H]1C(=O)N[C@H](Cc1ccccc1)C(=O)N[C@H](Cc1ccccc1)C(N)=O | NGF-differentiated PC-12 neurons |  | 5 µM, 24 h | reference: untreated | viability | 100%
CC(C)C[C@H](NC(=O)[C@H](C)NC(=O)[C@@H](NC(=O)[C@H](CCCNC(=N)N)NC(=O)[C@H](CC(C)C)NC(=O)[C@H](Cc1c[nH]c2ccccc12)NC(=O)[C@@H]1CCCN1C(=O)[C@@H](N)CCCCN)C(C)C)C(=O)N[C@@H](CS)C(=O)N1CCC[C@H]1C(=O)NCC(=O)O | HEp-2 | WST-1 | 16 µM, 24 h |  | viability | 94.8% and 96.8% and 101%
CN(CC[C@H](Oc1cccc2ccccc12)c1cccs1)N=O | TK6 |  | 5 µM, 4 h, together with: hamster liver S9 | reference: vehicle | relative survival | 40.9%
Cc1ccc2nc(Cl)c3cc(C(=O)NCCCN4CCC(C)CC4)sc3c2c1 | Vero-E6 | CellTiter-Glo ATP | 72 h, second round 5-point | reference: DMSO 0%, hyamine -100%, more negative, more toxic | maximum response | -16.7%
CC(C)C[C@@H](N)C(=O)N1CCC[C@@H]1C(=O)N[C@H](Cc1ccccc1)C(=O)N[C@H](Cc1ccccc1)C(=O)N[C@H](C)C(N)=O | NGF-differentiated PC-12 neurons |  | 160 µM, 24 h | reference: untreated | viability | 99.5%
O=c1ccc2ccccc2o1 | NHEK | cell membrane permeability | concentration not given, 6 h, apoptosis, necrosis panel |  | chance response | 0%
CCc1ccc(Sc2cc(C(=O)NCCCN3CCCC(C)C3)c3ccccc3n2)cc1 (stereo not shown) | Vero-E6 | CellTiter-Glo ATP | 72 h, retest 8-point duplicates | reference: DMSO 0%, hyamine -100%, more negative, more toxic | maximum response | -20.1%
CC(C)C[C@@H](NC(=O)[C@H](N)CCCCN)C(=O)N[C@H](CC(C)C)C(=O)N[C@H](Cc1ccccc1)C(=O)N[C@H](Cc1ccccc1)C(N)=O | NGF-differentiated PC-12 neurons |  | 80 µM, 24 h | reference: untreated | viability | 99%
O=NN1CC2CC(C1)c1cc3nccnc3cc12 | TK6 |  | 10 µM, 4 h, together with: hamster liver S9 | reference: vehicle | relative survival | 112%

Repeated from above:
Compound | cell line | test | setting | how to read | quantity | value
CC(C)C[C@@H](N)C(=O)N[C@H](CC(C)C)C(=O)N[C@H](Cc1ccccc1)C(=O)N[C@H](Cc1ccccc1)C(=O)N[C@H](C)C(=O)N[C@H](CCC(=O)O)C(N)=O | NGF-differentiated PC-12 neurons |  | 20 µM, 24 h | reference: untreated | viability | 98.3%
